Published values of several laboratories.
Protocols differ between the studies behind these lines. ± gives the spread as reported.

O=C(O)/C=C/c1cccc(S(=O)(=O)Nc2ccccc2)c1  Cmax metabolic ratio (human, mild liver dysfunction, plasma; intravenous, 400 mg/m^2 belinostat, cycle 1 day -7, geometric mean; relative to: metabolite over belinostat): 0.0666
CCCCCCCCCCCCCCCC(=O)N[C@@H](CCCCN)C(=O)N[C@@H](CCCCN)C(=O)N[C@@H](CO)C(=O)N[C@@H](CCCNC(=N)N)C(=O)N[C@@H](C)C(=O)N[C@@H](CC(C)C)C(=O)N[C@@H](Cc1ccccc1)C(N)=O  prothrombin time (cynomolgus monkey, male; 10 mg/kg, day 1): 12.2 ± 0.6 s
CCCC(CCC)NC(=O)c1ccc(OC2OC(C(=O)O)C(O)C(O)C2O)c(OC)c1 (centres unmarked)  Tmax (female Sprague-Dawley rat, plasma; oral, 20 mg/kg of parent drug): 2.2 h
Cc1nc(C)c(C=[N+]([O-])C(C)(C)C)nc1C  concentration (Sprague-Dawley rat, both sexes, brain; oral, 45 mg/kg, 30 min): 22100 ng/g
Cc1cc(O)cc(O)c1C(=O)c1c2c3c(c(O)cc(C)c3oc1=O)C(=O)c1c(O)cc(O)cc1-2  efflux ratio (Caco-2 monolayer; 100 µM, 3 h, pH 7.4; relative to: AP to BL over BL to AP): 31.3
CCOc1ccc2cc(-c3nn(CC4CCNCC4)c4ncnc(N)c34)ccc2n1  plasma concentration (piglets, crossbred; oral, 10 mg/kg twice daily, 2 h after dose 9, 7 days post infection): 0.1 ± 0.1 µM
C[Si]1(C[C@H](CN)CC(=O)O)CCCC1  concentration (male Sprague-Dawley rat, plasma; oral, 30 mg/kg, 1 h, single dose): 33 µM
CC[C@H](C)[C@H](NC(=O)[C@H](Cc1ccccc1)NC(=O)[C@H](CCCCN)NC(=O)[C@H](CCCNC(=N)N)NC(=O)[C@H](Cc1ccccc1)NC(=O)[C@H](Cc1ccccc1)NC(=O)[C@H](CCCCN)NC(=O)[C@H](CO)NC(=O)[C@H](CC(C)C)NC(=O)[C@H](CCCNC(=N)N)NC(=O)[C@H](CCSC)NC(=O)[C@H](C)N)C(=O)N[C@@H](CC(C)C)C(=O)N[C@@H](CCN)C(=O)N[C@@H](CCCNC(=N)N)C(=O)N[C@@H](CCCCN)C(=O)N[C@@H](CCCCN)C(=O)O  helicity (circular dichroism; 20% TFE in PBS; 200 µM, pH 7.4, 25 °C): 11.9%
CCN(CC)c1ccc2c(-c3ccccc3C(=O)OCCOCCOCC[18F])c3ccc(=[N+](CC)CC)cc-3oc2c1  heart to blood ratio (rat; dose not given, 60 min post injection; relative to: heart over blood): 5.4
O=C(O)C1OC(OC2C(COS(=O)(=O)O)OC(OC3C(C(=O)O)OC(OC4C(COS(=O)(=O)O)OC(OC5C(C(=O)O)OC(OC6C(COS(=O)(=O)O)OC(OC7C(C(=O)O)OC(OC8C(COS(=O)(=O)O)OC(OC9C(C(=O)O)OC(OC%10C(COS(=O)(=O)O)OC(OC%11C(C(=O)O)OC(Oc%12ccc([N+](=O)[O-])cc%12)C(O)C%11O)C(NS(=O)(=O)O)C%10O)C(OS(=O)(=O)O)C9O)C(NS(=O)(=O)O)C8O)C(OS(=O)(=O)O)C7O)C(NS(=O)(=O)O)C6O)C(OS(=O)(=O)O)C5O)C(NS(=O)(=O)O)C4O)C(OS(=O)(=O)O)C3O)C(NS(=O)(=O)O)C2OS(=O)(=O)O)C(O)C(O)C1OC1OC(COS(=O)(=O)O)C(O)C(O)C1NS(=O)(=O)O (centres unmarked)  organ-to-body weight ratio (rat, kidneys; intravenous, 3600 µg/kg per day, 7 days, day 8): 0.7 ± 0.04
C[C@H]1Nc2nc(=O)c3[nH]ccc3n2Cc2ccc(Cl)cc21  exposure ratio (dog, both sexes, plasma; 100 mg/kg; relative to: dog over human 5 mg): not detected
Cc1cc2c(cc1C1(c3ncc(C(=O)O)cn3)CC1)C(C)(C)CCC2(C)C  blood cholesterol (Sprague-Dawley rat, male; oral, 100 mg/kg, 9 h, sesame oil vehicle): 68 ± 9.9 mg/dL
C[C@H](NC(=O)c1ccc2c(c1)C(=O)OC21c2ccc(O)cc2Oc2cc(O)ccc21)C(=O)N[C@@H](CCCCN)C(=O)N[C@@H](C)C(=O)N[C@@H](CCCCN)C(=O)N[C@@H](C)C(=O)N[C@@H](CCCCN)C(=O)N[C@@H](C)C(=O)N[C@@H](CCCCN)C(=O)N[C@@H](C)C(=O)N[C@@H](CCCCN)C(=O)N[C@@H](C)C(=O)N[C@@H](CCCCN)C(=O)N[C@@H](C)C(=O)N[C@@H](CCCCN)C(=O)N[C@@H](C)C(=O)N[C@@H](Cc1ccccc1)C(=O)N[C@@H](C)C(=O)N[C@@H](Cc1ccccc1)C(=O)N[C@@H](C)C(=O)N[C@@H](Cc1ccccc1)C(=O)O  cartilage uptake ratio (bovine, healthy cartilage explants; 30 µM, 24 h, 37 °C, 5-FAM labelled; relative to: tissue over bath concentration): ~24
CCCCCCCCCCCCCCCC(=O)N[C@@H](CCCCNC(=O)[C@H](CCCCNC(=O)CCC(=O)NCCN(C)CCNc1ccnc2cc(C(F)(F)F)ccc12)NC(=O)CCC(=O)NCCN(C)CCNc1ccnc2cc(C(F)(F)F)ccc12)C(=O)N[C@@H](CS)C(=O)NCC(=O)NCC(=O)NCC(=O)N[C@@H](C)C(=O)N[C@@H](CCCNC(=N)N)C(=O)N[C@@H](CCCCN)C(=O)N[C@@H](CCCCN)C(=O)N[C@@H](C)C(=O)N[C@@H](C)C(=O)N[C@@H](CCCCN)C(=O)N[C@@H](C)C(=O)N[C@@H](C)C(=O)N[C@@H](CCCNC(=N)N)C(=O)N[C@@H](CCCCN)C(=O)N[C@@H](CCCCN)C(=O)N[C@@H](C)C(=O)N[C@@H](C)C(=O)N[C@@H](CCCCN)C(=O)N[C@@H](C)C(=O)N[C@@H](C)C(=O)N[C@@H](CCCNC(=N)N)C(=O)N[C@@H](CCCCN)C(=O)N[C@@H](CCCCN)C(=O)N[C@@H](C)C(=O)N[C@@H](C)C(=O)N[C@@H](CCCCN)C(=O)N[C@@H](C)C(=O)N[C@@H](C)C(=O)N[C@@H](CCCNC(=N)N)C(=O)N[C@@H](CCCCN)C(=O)N[C@@H](CCCCN)C(=O)N[C@@H](C)C(=O)N[C@@H](C)C(=O)N[C@@H](CCCCN)C(=O)N[C@@H](C)C(N)=O  zeta potential (water; 40 min, 25 °C, 140:1 ratio, together with: siRNA): 14.9 ± 4.2 mV
C[C@@H](O)[C@H](NC(=O)[C@@H]1CSSC[C@H](NC(=O)[C@@H](Cc2ccccc2)NC(=O)CN2CCN(CC(=O)O)CCN(CC(=O)O)CCN(CC(=O)O)CC2)C(=O)N[C@@H](Cc2ccc(O)cc2)C(=O)N[C@H](Cc2c[nH]c3ccccc23)C(=O)N[C@@H](CCCCN)C(=O)N[C@@H]([C@@H](C)O)C(=O)N1)C(=O)O  protein-bound activity (mouse serum; concentration not given, 37 °C): < 10%
[11CH3]c1ccc2nc(C3CCC3)n(-c3ccc4[nH]ncc4c3)c2n1  absorbed dose (extrapolated from mouse; human female, Lower large intestine wall): 5.9 µSv/MBq
CN[C@@H]1[C@H](O)[C@H](NC)[C@H]2O[C@]3(O)[C@H](O[C@@H]2[C@H]1O)O[C@H](C)C[C@@]3(O)CNCc1ccc(Cl)cc1  volume of distribution (rat; intravenous, 10 mg/kg): 1.45 L/kg
CSCOC1C(=O)C2(C)C(OCSC)CC3OCC3(OC(C)=O)C2C(OC(=O)c2ccccc2)C2(O)CC(OC(=O)C(O)C(C=C(C)C)NC(=O)OC(C)(C)C)C(C)=C1C2(C)C (centres unmarked)  MRT(0-t) (female Sprague-Dawley rat, plasma; intravenous, 2 mg/kg): 2.8 h
C[C@@H](O)[C@H](NC(=O)[C@@H](NC(=O)[C@@H](N)CCCCN)[C@@H](C)O)C(=O)N[C@@H](CCCCN)C(=O)N[C@@H](CO)C(=O)O  amount retained in epidermis (hairless mouse skin; 50 µg/cm^2, 24 h): not detected
CN1CCC[C@]1(C)/C=C/S(=O)(=O)NC(=O)Nc1c2c(cc3c1CCC3)CCC2  accumulation ratio AUC(0-24) (human, plasma; oral, 50 mg twice daily, 14 days, multiple ascending dose; relative to: day 14 over day 1): 1.5
CC(=O)N[C@@H](CC(N)=O)C(=O)NCC(=O)N[C@@H](C)C(=O)N[C@@H](C)C(N)=O  half-life of Asn form (1H NMR; sodium phosphate buffer 50 mM; pH 7.4, 46 °C): 13.9 h
O=c1c2cc([N+](=O)[O-])ccc2n(CCN2CCCC2)n1Cc1ccccc1  CC50 (resazurin; peritoneal macrophages, BALB/c mice; 48 h, 10% FBS): 170 ± 21.3 µM
CC(C)[C@H](NC(=O)CNC(=O)[C@H](CCC(N)=O)NC(=O)[C@H](C)N)C(=O)O  AUC(0-last) (LC-MS/MS; human, plasma; intravenous, 10 mg/kg three times daily, day 3, first dose, 10 min infusion, geometric mean): 273 ng·h/mL
COc1cc(NC(C)=O)c2c(c1O)-c1c(OC)c(OC)cc3c1C(C2)N(C)CC3 (centres unmarked)  remaining compound (rat lung homogenate; 0.5 µg/mL, 4 h, room temperature, short-term storage): 107 ± 2.7%
CC[N+]1=C(C=CC=CC=C2N(CCCCCC(=O)O)c3ccc4c(S(=O)(=O)[O-])cc(S(=O)(=O)[O-])cc4c3C2(C)C)C(C)(C)c2c1ccc1c(S(=O)(=O)[O-])cc(S(=O)(=O)[O-])cc21.[K+].[K+].[K+]  absorbance maximum (100% serum; pH 7.4): 682 nm
Cc1ccc(-c2ccc(-c3cc4sccc4o3)cn2)nc1  fluorescence quantum yield (MeOH; together with: quinine bisulfate reference): 0.65
CC(C)c1cnc(-c2cc(Cl)ccc2F)cc1Nc1ccncc1C(=O)NC(CO)CO  patients with related SAE (refers to: anaemia; human patients; oral, dose not given, grade 5): 0%
COC(=O)c1ccc(-c2cn(Cc3cc(Cl)ccc3O[11CH3])nn2)cc1  distribution volume (PET, one-tissue compartment model; rhesus monkey, brain WB; dose not given): 0.47 mL/cm³
O=C1CCc2ccc(NS(=O)(=O)c3cccc(Oc4ccccc4)c3)cc2N1  oral bioavailability (mouse C57BL/6J, plasma; oral, 3 mg/kg): 38%

Some of these lines once more:
Cc1nc(C)c(C=[N+]([O-])C(C)(C)C)nc1C  concentration (Sprague-Dawley rat, both sexes, brain; oral, 45 mg/kg, 30 min): 22100 ng/g
Cc1cc(O)cc(O)c1C(=O)c1c2c3c(c(O)cc(C)c3oc1=O)C(=O)c1c(O)cc(O)cc1-2  efflux ratio (Caco-2 monolayer; 100 µM, 3 h, pH 7.4; relative to: AP to BL over BL to AP): 31.3
CCOc1ccc2cc(-c3nn(CC4CCNCC4)c4ncnc(N)c34)ccc2n1  plasma concentration (piglets, crossbred; oral, 10 mg/kg twice daily, 2 h after dose 9, 7 days post infection): 0.1 ± 0.1 µM
C[Si]1(C[C@H](CN)CC(=O)O)CCCC1  concentration (male Sprague-Dawley rat, plasma; oral, 30 mg/kg, 1 h, single dose): 33 µM
CC[C@H](C)[C@H](NC(=O)[C@H](Cc1ccccc1)NC(=O)[C@H](CCCCN)NC(=O)[C@H](CCCNC(=N)N)NC(=O)[C@H](Cc1ccccc1)NC(=O)[C@H](Cc1ccccc1)NC(=O)[C@H](CCCCN)NC(=O)[C@H](CO)NC(=O)[C@H](CC(C)C)NC(=O)[C@H](CCCNC(=N)N)NC(=O)[C@H](CCSC)NC(=O)[C@H](C)N)C(=O)N[C@@H](CC(C)C)C(=O)N[C@@H](CCN)C(=O)N[C@@H](CCCNC(=N)N)C(=O)N[C@@H](CCCCN)C(=O)N[C@@H](CCCCN)C(=O)O  helicity (circular dichroism; 20% TFE in PBS; 200 µM, pH 7.4, 25 °C): 11.9%
